Results gathered from unrelated publications.
Each line is one published result; not all experiments were run side by side. Numbers after ± are the reported error.

`C/C(=N\OCCCN1CCCCC1)c1ccc(C(F)(F)F)cc1` gave a half-life of 1.69 h (metabolic stability; human, liver microsomes).
`[11CH3]n1c(=O)n(CCCO)c(=O)c2c1nc(Oc1cccc(OC(F)(F)F)c1)n2Cc1ccc(Cl)cc1` has a tracer uptake of 1.34 ± 0.05 %ID/g (ex vivo biodistribution; Sprague Dawley rat, kidney; 30 min post injection).
With `CC[C@H](C)[C@@H]1NC(=O)[C@H](CCCCN)NC(=O)[C@H](CCCCN)NC(=O)[C@H](Cc2ccc(O)cc2)NC(=O)[C@H](CC(C)C)NC(=O)[C@@H]2CCCN2C(=O)[C@H](C)NC(=O)CNC(=O)CNC(=O)[C@H](CO)NC(=O)CNC(=O)CNC(=O)[C@H](CO)NC(=O)[C@H](CCCCN)NC(=O)[C@H](CC(C)C)NC(=O)[C@H](CC(C)C)NC(=O)[C@H](CCCCN)NC(=O)[C@H](CCCCN)NC(=O)[C@H]([C@@H](C)CC)NC(=O)[C@H]([C@@H](C)CC)NC(=O)[C@H](CCCCN)NC(=O)[C@H](CCCCN)NC(=O)[C@H](Cc2ccc(O)cc2)NC(=O)[C@H](CC(C)C)NC(=O)[C@@H]2CCCN2C(=O)[C@H](C)NC(=O)CNC(=O)CNC(=O)[C@H](CO)NC(=O)CNC(=O)CNC(=O)[C@H](CO)NC(=O)[C@H](CCC(=O)O)NC(=O)[C@H](CC(C)C)NC(=O)[C@H](CC(C)C)NC(=O)[C@H](CCCCN)NC(=O)[C@H](CCCCN)NC(=O)[C@H]([C@@H](C)CC)NC1=O` the HC10 was over 100 µM (hemolysis; uninfected human erythrocytes; 1 h).
`C#Cc1c(F)ccc2cc(O)cc(-c3ncc4c(N5CC6CCC(C5)N6C(=O)OCCCCC)nc(OC[C@@]56CCCN5C[C@H](F)C6)nc4c3F)c12` gave a half-life of 2.32 h (metabolic stability; mouse, liver microsomes; 1 µM, pH 7.4).
`CC1COC2=C1C(=O)C(=O)c1c2ccc2c1C(OC(=O)CNC(=O)C(N)CCC(=O)O)CCC2(C)C` (mixture of isomers) gave a thermodynamic solubility of 3900 µg/mL (water).
Under “subjects with dyspnoea TEAE”, `CC[C@H](C)C(=O)N1CCC(NC(=O)Nc2ccc(OC(F)(F)F)c(F)c2)CC1` is recorded as 16.7% (healthy volunteers; oral, 2 mg single dose, 14 (unit not given)).
Under stability, `CCN(CC)CCOc1ccc(-c2nnn(Cc3ccc(OC)cc3)c2N)cc1` is recorded as “stable” (Sprague-Dawley rats, plasma; 120 min).
`CN[C@](C)(C[18F])C(=O)O` has a tracer uptake of 1.1 %ID/g (mouse, muscle; 2 h, tumour-bearing).
The tissue uptake of `N=C(N)NCc1ccc(C(=O)NCCCC[C@H](NC(=O)N[C@@H](CCC(=O)O)C(=O)O)C(=O)O)cc1[131I]` is reported as 5.73 ± 1.2 %ID/g (SCID mouse, PC-3 xenografts, liver; 2 h).
The Magnesium of `CSCC[C@@H]1NC(=O)[C@@H]2CSSC[C@H](NC(=O)[C@H](CO)NC(=O)[C@H](C)N)C(=O)N[C@@H](CCCNC(=N)N)C(=O)N[C@@H]([C@@H](C)O)C(=O)N3CCC[C@H]3C(=O)N[C@@H](CCCCN)C(=O)N[C@@H](CC(=O)O)C(=O)N[C@H]3CSSC[C@H](NC(=O)[C@H](CCCCN)NC(=O)[C@H](CCCNC(=N)N)NC(=O)[C@H](CC(N)=O)NC1=O)C(=O)N[C@@H](CCCCN)C(=O)N[C@H]1CSSC[C@H](NC(=O)[C@@H]4CCCN4C(=O)[C@H](CC(=O)O)NC(=O)[C@H](C)NC3=O)C(=O)N[C@@H](C)C(=O)N[C@@H](CCCCN)C(=O)N[C@@H](CCC(=O)O)C(=O)N[C@@H]([C@@H](C)O)C(=O)NCC(=O)N[C@@H](CSSC[C@@H](C(N)=O)NC(=O)[C@H](CCCNC(=N)N)NC(=O)[C@H](CC(N)=O)NC1=O)C(=O)N1CCC[C@H]1C(=O)N[C@@H](Cc1ccc(O)cc1)C(=O)NCC(=O)N[C@@H](CCCCN)C(=O)N2` is reported as 1.94 mg/dL (DA rat pristane-induced arthritis, serum; subcutaneous, 0.1 mg/kg every other day, 21 days).
`CC(C)[C@H](NC(=O)CNC(=O)[C@H](CCC(N)=O)NC(=O)[C@H](C)N)C(=O)O`: tolerability “not toxic” (human; continuous infusion, all dose groups).
Under “cumulative peptide release”, `C[C@@H](O)[C@H](NC(=O)[C@H](CCC(=O)O)NC(=O)[C@H](Cc1ccccc1)NC(=O)[C@H](Cc1c[nH]c2ccccc12)NC(=O)[C@H](CCCCN)NC(=O)[C@H](CCCCN)NC(=O)[C@H](CCCCN)NC(=S)Nc1ccc2c(c1)C(=O)OC21c2ccc(O)cc2Oc2cc(O)ccc21)C(=O)N[C@@H](Cc1c[nH]c2ccccc12)C(=O)N[C@@H](Cc1ccccc1)C(=O)N[C@H](C(=O)N[C@@H](CCC(=O)O)C(=O)N[C@@H](Cc1c[nH]c2ccccc12)C(=O)N1CCC[C@H]1C(=O)N[C@@H](CCCCN)C(=O)N[C@@H](CCCCN)C(=O)N[C@@H](CCCCN)C(=O)N[C@@H](CCCCN)C(=O)O)[C@@H](C)O` is recorded as 54.6 µg (gelatin hydrogel 100 mg/mL; 56.6 µg loaded, glutaraldehyde cross-linked, with: PBS).
`[2H]C([2H])([2H])C([2H])([2H])C([2H])([2H])OC(C(=O)OC1CCNCC1)(c1ccccc1)c1ccccc1` has an adverse events of 0% (item: any; healthy Japanese male; oral, 8 mg once daily, 16 days).
The bioavailability of `CS(C)(=O)=Nc1ccc(-c2ccc(-c3nc4cc(O[C@@H]5CO[C@H]6[C@@H]5OC[C@H]6O)[nH]c4cc3F)cc2)cc1` is reported as 85% (female C57BL/6 mouse, plasma; oral, 10 mg/kg).
For `COc1ccc(C)cc1NC(=O)OC1CC2CCCC(C1)N2Cc1ccc(CC[18F])cc1` (centres unmarked), “tumour to tissue ratio” read 1.92 (BALB/c mice, EMT6 tumour; 1 h; relative to: tumour over muscle).
`Cc1cc(Nc2nc(C[C@@]3(C(=O)O)CCN(Cc4cccc(Cl)c4F)[C@H](C)C3)cc(C)c2F)n[nH]1` has a bioavailability of 78.8% (beagle dog, plasma; oral, 1 mg/kg, single dose).
The AUC(0-t) of `CC[C@H](C)[C@H](NC(=O)[C@H](CCC(=O)O)NC(=O)[C@H](CCC(=O)O)NC(=O)[C@H](Cc1ccccc1)NC(=O)[C@H](CC(=O)O)NC(=O)CNC(=O)[C@H](CC(N)=O)NC(=O)CNC(=O)CNC(=O)CNC(=O)CNC(=O)[C@@H]1CCCN1C(=O)[C@H](CCCNC(=N)N)NC(=O)[C@@H]1CCCN1C(=O)[C@H](N)Cc1ccccc1)C(=O)N1CCC[C@H]1C(=O)N[C@@H](CCC(=O)O)C(=O)N[C@@H](CCC(=O)O)C(=O)N[C@@H](Cc1ccc(O)cc1)C(=O)N[C@@H](CC(C)C)C(=O)O` is reported as 1480 ± 278 ng·h/mL (healthy Chinese male volunteers, plasma; intravenous, 0.5 mg/kg).
For `NS(=O)(=O)NCC(F)(F)c1ccccc1F`, the therapeutic index was 4.3 (maximal electroshock test; mouse; ip; relative to: rotarod TD50 over MES ED50).
For `CC(C)[C@@H]1NC(=O)[C@H](Cc2ccccc2)NC(=O)[C@H](Cc2ccc(O)cc2)NC(=O)CCSSC[C@@H](C(=O)N2CCC[C@H]2C(=O)N[C@H](CCCNC(=N)N)C(=O)NCC(N)=O)NC(=O)[C@H](CCC(N)=O)NC1=O`, the GGT was 3.6 ± 0.9 IU/L (Wistar rat, blood; intravenous, 100 µg/kg single dose, 72 h).
With `CC(=O)[O-].CN1CCCN2CCN(C)CCCN(CC1)CC2.F[P-](F)(F)(F)(F)F.[Co+2]` the E1/2 was 0.536 V (cyclic voltammetry, item: second Co2+/Co3+ couple; acetonitrile; relative to: SHE).
Under “subjects with adverse event”, `CC[C@@H]1C[C@]1(NC(=O)[C@@H]1C[C@@]2(CN1C(=O)[C@@H](NC(=O)[C@@H](NC(=O)[C@@H]1CCCCN1C(C)C)C1CCCCC1)C(C)(C)C)C(C)(C)C21CCC1)C(=O)NS(=O)(=O)N1CCCC1` is recorded as 0% (item: Pain; human; oral, 10 mg, with: ritonavir 100 mg).
`COC(=O)C[C@](O)(CCCC(C)(C)OC(C)=O)C(=O)O[C@@H]1C(OC)=C[C@]23CCCN2CCc2cc4c(cc2[C@H]13)OCO4` — result for tissue concentration: “not detected” (CD1 mouse, brain; oral, 1 mg/kg, 2 h, below quantification limit 1.00 ng/mL).
`CC(C)[C@H](NC(=O)CNC(=O)[C@H](CCC(N)=O)NC(=O)[C@H](C)N)C(=O)O`: “subjects with Definitely related AE” 0% (healthy male volunteers; intravenous, 45 mg/kg/h, 2 h, with: LPS 2 ng/kg).
With `Cc1cc(-c2ccc3ccccc3c2)nnc1NCCN1CCN(C)CC1` the AUC(0-inf) was 1480 ng·h/mL (rat; oral, dose not given).
`C/C=C/C=C/C/C=C/CCCCCCCc1cccc(O)c1O` has a tissue concentration of 20500 ± 2320 ng/g (female Kunming mice tumour-bearing, lungs; intravenous, 10 mg/kg, 0.5 h).
For `O=P([O-])([O-])Oc1ccc(-c2cc(=S)ss2)cc1.[Na+].[Na+]`, the solubility was about 1500 µg/mL (HPLC; aqueous buffer; pH 7.4, 25 °C).
`CSCC[C@H](NC(=O)CNC(=O)[C@H](CC(=O)O)NC(=O)[C@@H](NC(=O)[C@@H](NC(=O)[C@@H](NC(=O)CNC(=O)[C@H](CCC(N)=O)NC(=O)[C@H](CCSC)NC(=O)[C@H](CC(=O)O)NC(=O)[C@H](C)NC(=O)[C@H](C)NC(=O)[C@@H](NC(=O)[C@H](CO)NC(=O)[C@@H](N)CC(C)C)[C@@H](C)O)C(C)C)C(C)C)[C@@H](C)O)C(=O)N[C@@H](C)C(=O)N[C@@H](CO)C(=O)NCC(=O)N[C@@H](CC(C)C)C(=O)N[C@@H](CC(=O)O)C(=O)N[C@@H](CCCCN)C(=O)N[C@@H](CC(=O)O)C(=O)N[C@@H](Cc1ccc(O)cc1)C(=O)N[C@@H](CC(C)C)C(=O)N[C@@H](CCCCN)C(=O)N1CCC[C@H]1C(=O)N[C@@H](CC(=O)O)C(=O)N[C@@H](CC(=O)O)C(=O)O` gave a Tmax of 4.8 min (human, serum; intravenous, 3.33 mg/kg, patients, infusion).
`CN(C)C(CNC(=O)Nc1cc(C(F)(F)F)ccc1N1CCOCC1)c1ccncc1` (centres unmarked) gave a serum AST of 539 U/L (mouse, serum; intraperitoneal, 180 mg/kg single dose).
`CCCCCCCCCCCCC(=O)O.O=C1CCCC2C3CCCN4CCCC(CN12)C34` (centres unmarked) — result for “standard Gibbs energy of aggregation”: -8.83 kcal/mol (electrical conductivity; water; 313.15 K).
The diffusion of `CCCCC[C@@H]1OC(=O)[C@@H](C)N(C)C(=O)[C@H](CCCCC)OC(=O)[C@@H](C)N(C)C(=O)[C@H](CCCCC)OC(=O)[C@@H](C)N(C)C(=O)[C@H](CCCCC)OC(=O)[C@@H](C)N(C)C1=O` is reported as 26% (PAMPA; lecithin in n-dodecane membrane; 500 µM, pH 7.4, PBS with TPGS and DMSO).
For `NC(=O)CC[C@@H]1NC(=O)[C@H](Cc2ccccc2)NC(=O)[C@H](Cc2ccc(O)cc2)NC(=O)[C@@H](N)CSSC[C@@H](C(=O)N2CCC[C@H]2C(=O)N[C@@H](CCCN=C(N)N)C(=O)NCC(N)=O)NC(=O)[C@H](CC(N)=O)NC1=O`, “plasma level reduction” read about 70% (radioimmunoassay; Sprague-Dawley rat, plasma; intra-arterial, 20 ng/kg, 5 min; relative to: 1 min post-injection).
`O=C(O)CC[C@H](NC(=O)O[C@@H](CCCCNC(=O)c1ccc([18F])cc1)C(=O)O)C(=O)O` has a tissue uptake of 11 ± 1.77 %ID/g (mouse, PC-3 PIP/flu xenografts, liver; 30 min).

Repeated from above:
With `Cc1cc(-c2ccc3ccccc3c2)nnc1NCCN1CCN(C)CC1` the AUC(0-inf) was 1480 ng·h/mL (rat; oral, dose not given).
`CCCCCCCCCCCCC(=O)O.O=C1CCCC2C3CCCN4CCCC(CN12)C34` (centres unmarked) — result for “standard Gibbs energy of aggregation”: -8.83 kcal/mol (electrical conductivity; water; 313.15 K).
Under stability, `CCN(CC)CCOc1ccc(-c2nnn(Cc3ccc(OC)cc3)c2N)cc1` is recorded as “stable” (Sprague-Dawley rats, plasma; 120 min).
For `O=P([O-])([O-])Oc1ccc(-c2cc(=S)ss2)cc1.[Na+].[Na+]`, the solubility was about 1500 µg/mL (HPLC; aqueous buffer; pH 7.4, 25 °C).
`Cc1cc(Nc2nc(C[C@@]3(C(=O)O)CCN(Cc4cccc(Cl)c4F)[C@H](C)C3)cc(C)c2F)n[nH]1` has a bioavailability of 78.8% (beagle dog, plasma; oral, 1 mg/kg, single dose).
